Measurements collected from several papers.
Every numbered part comes from another study and shows a few of its results, in no order. Changes are numbered by the printed parent chain.

Series 1
Target: TAR DNA-binding protein 43, full length, His tag (TARDBP, Homo sapiens, UniProt Q13148, residues 1-414)
Method: RNA Bind-n-Seq
Form: RNA
Matrix: in vitro
Concentration: 20 nM
Setting: 6-mer, flanks averaged, single round
Added: 150 mM KCl
Relative to: input library
Reading: higher = stronger binding
`GCCCAA`: “6-mer enrichment (R)” 0.733.
`AUGGCC`: “6-mer enrichment (R)” 0.822.
For `CGCACA`, “6-mer enrichment (R)” read 0.714.
Under “6-mer enrichment (R)”, `CUAGAU` is recorded as 0.589.
`CAGGUA` — result for “6-mer enrichment (R)”: 0.84.
`UUAAAU` — result for “6-mer enrichment (R)”: 0.627.
For `AUUAGG`, “6-mer enrichment (R)” read 0.893.
`AUCACC`: “6-mer enrichment (R)” 0.599.
`CCCCCC`: “6-mer enrichment (R)” 0.751.
For `UAUAGU`, “6-mer enrichment (R)” read 0.646.
`UGAAGU` — result for “6-mer enrichment (R)”: 0.846.

Series 2
Target: Histone acetyltransferase KAT6A, winged helix 2, GST fusion (KAT6A, Homo sapiens, UniProt Q92794, residues 85-181)
Method: protein binding microarray
Form: double-stranded DNA, one strand shown
Matrix: in vitro
Concentration: not given
Setting: 8-mer, flanks averaged, mean of 2 arrays, mostly near background
Relative to: not given
Reading: higher = stronger binding
Target sequence (chain): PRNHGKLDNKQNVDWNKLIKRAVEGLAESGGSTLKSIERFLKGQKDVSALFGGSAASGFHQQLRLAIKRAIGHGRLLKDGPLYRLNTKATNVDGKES
For `AGGACAAG`, the E-score was -0.0435.
`TACGAAAA` gave an E-score of 0.0137.
`CAGACGTA` gave an E-score of 0.00164.
For `AAGTATTA`, the E-score was -0.0185.
`AAACACAT` has an E-score of 0.0024.
`GACAACTC` has an E-score of 0.0378.
`CGTTGCGC` has an E-score of 0.0846.
`CAGTGACG` gave an E-score of 0.0589.

Series 3
Target: ABI1, truncated, D143A, DHFR fusion (Arabidopsis thaliana)
Method: DHFR PCA, deep sequencing
Matrix: yeast
Setting: methotrexate growth selection, single substitutions
Added: (+)-ABA 58 µM
Relative to: wild-type fitted maximum
Reading: higher = stronger binding
Starting sequence: PYL1, truncated, DHFR fusion (Arabidopsis thaliana); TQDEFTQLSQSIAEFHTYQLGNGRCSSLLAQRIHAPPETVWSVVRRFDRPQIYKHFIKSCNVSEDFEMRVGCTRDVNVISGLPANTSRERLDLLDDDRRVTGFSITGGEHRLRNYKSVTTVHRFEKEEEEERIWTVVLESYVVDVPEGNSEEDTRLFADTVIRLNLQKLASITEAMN
`Y115D`: “relative binding score” 1.5%.
`M176Q`: “relative binding score” 83.3%.
Under “relative binding score”, `T154R` is recorded as -1.44%.
For `R69N`, “relative binding score” read 85.7%.
For `T135F`, “relative binding score” read -1.77%.
`E139D` — result for “relative binding score”: 6.05%.
`S11F`: “relative binding score” 75.2%.

Other studies, line by line
With `PhoQ, residues 284 288 289 292 302 303 SLGVVW` the fold induction was 12.2 (PhoP, residues 12 14 15 18 19 LWHCS (Escherichia coli, UniProt P23836); Sort-seq, measured: YFP reporter; E. coli; PhoQ-PhoP variant library, added: 10 µM Mg2+; relative to: high Mg2+ state, higher = stronger signaling).

A few entries again (series 2):
`CGTTGCGC` has an E-score of 0.0846.
`GACAACTC` has an E-score of 0.0378.
`CAGACGTA` gave an E-score of 0.00164.
For `AAGTATTA`, the E-score was -0.0185.
